Measured values from different studies.
Each line is one published result; not all experiments were run side by side. ± gives the spread as reported.

SMILES | cell line | assay | setting | IC50 [µM]
CC(=O)O[C@H]1CC[C@]2(C)[C@H]3CC=C4[C@@H]5[C@@H](C)[C@H](C)CC[C@]5(C(=O)O)CC[C@@]4(C)[C@]3(C)CC[C@H]2C1(C)C | AGS | cell growth or viability, MTT | 24 h | 42.9
COc1cc(/C=C/C(=O)/C=C(O)/C=C/c2ccc(OCC(=O)N3CCOCCOCCOCCOCCOCC3)c(OC)c2)ccc1OCC(=O)N1CCOCCOCCOCCOCCOCC1 | SK-LU-1 | cell growth or viability, SRB | – | 6.2
N[C@@H](CCC(=O)N[C@@H](CS[Se]Cc1ccc(-c2cc(C(F)(F)F)nn2-c2ccc(S(N)(=O)=O)cc2)cc1)C(=O)NCC(=O)O)C(=O)O | FF2441 human fibroblasts | cell viability, MTS | 72 h | 36.3 ± 5.6
O=C(O)C(Cc1ccccc1[N+](=O)[O-])=NNc1nc2c(s1)CS(=O)(=O)c1c-2ccc(Cl)c1Cl (mixture of isomers) | CRL-2351 | cell growth, sulforhodamine B | 5 days | > 20
CC1CNCCN1C(=O)c1cn(C23CCCC(C)(CCC4C2CC4(C)C)C3)nn1 (stereo not shown) | NCM460 | cell growth or viability, CCK-8 | 72 h | 21.6
Cc1ccc2oc(-c3c4c(N)n[nH]c(=O)c4nn3-c3ccc(NC(=O)/C=C/CN(C)C)cc3)c(C)c2c1 | UMUC14 | cell growth or viability | – | 0.043
CC1(N)CCN(c2nc(N(Cc3ccccc3)Cc3ccccc3)nc3c2ncn3Cc2ccccc2)CC1 | AGS | cell growth or viability, WST-1 | 72 h | 3.5
CC(=O)N1N=C(C)CC1c1ccccc1 (stereo not shown) | human Skin fibroblast | cell growth or viability, LDH | 48 h | 18.6
N#Cc1c(F)c(F)c2nc(SCC3CCCO3)nc(N)c2c1F (stereo not shown) | SGC-7901 | cell growth or viability, MTT | 96 h | 12.2
O=C1c2ccc3c4ccc5c6c(ccc(c7ccc(c2c37)C(=O)N1CCN1CCCCC1)c64)C(=O)N(CCN1CCCCC1)C5=O | A549, PC-3, HL-60 | cytotoxicity, SRB | 72 h, range over three lines | 52.5 to 86.2
[Cl][Cu][Cl].c1ccc(-c2nnc(-c3ccc4c(c3)OCO4)[nH]2)nc1 | T24 | cell growth or viability, MTT | 24 h | 3.45
C(=C/c1ccccc1)/c1ccccc1 | U-937 | cell growth or viability, ATP luminescence | 24 h | 30
Cc1cc(C#N)cc(C)c1Oc1cc(Nc2ccc(C#N)cn2)nc2ccncc12 | H69AR (multidrug resistant) | – | 48 h | > 127
N#Cc1cccc(-c2ccc(=O)n(Cc3cccc(-c4ncc(OCC5CCN(CC(=O)NCCOCCOCCNc6ccc7c(c6)C(=O)N(C6CCC(=O)NC6=O)C7=O)CC5)cn4)c3)n2)c1 (stereo not shown) | Hs746T | cell growth or viability, CCK-8 | 72 h | 0.00619
CCCC/C=N/NC(=O)c1cc2cc(Nc3nccc(-c4cccnc4)n3)ccc2[nH]1 | LO2 | cell viability, MTT | 48 h | > 50
C=C(C)[C@@H]1CC[C@]2(C(=O)O)CC[C@]3(C)[C@H](CC[C@@H]4[C@@]5(C)CC[C@H](O[C@@H]6O[C@@H](C)[C@H](O)[C@@H](O)[C@H]6O)C(C)(C)[C@@H]5CC[C@]43C)[C@@H]12 | human Skin fibroblast | cell growth or viability | 48 h | 9
N=C(N)Nc1nc2ccccc2o1 | BPH-1 | cell growth or viability, MTT | 24 h | > 500
COc1cc(-c2cc(=O)c3c(O)cc(OC4OC(COC5OC(C)C(O)C(O)C5O)C(O)C(O)C4O)cc3o2)ccc1O (stereo not shown) | U87MG.ΔEGFR glioblastoma | cytotoxicity, resazurin reduction | 72 h | 38.1 ± 3
CCCCSc1nc(N)c2c(F)c(C#N)c(F)c(Cl)c2n1 | SGC-7901 | cell growth or viability, MTT | 96 h | 30.4
C=C1CC[C@@H]2O[C@@]2(C)CC[C@H]2[C@H]1C[C@]2(C)C(=O)/C=C/C(C)(O)CO (stereo partly shown) | KPC | cell viability, CCK-8 | 72 h | 5.98 ± 0.78
COCCOCCSc1nc(N)c2c(F)c(C#N)c(F)c(F)c2n1 | SGC-7901 | cell growth or viability, MTT | 96 h | 5.68
C=C[CH2][Pd-]([Cl])[Cl].CC(C)c1cccc(C(C)C)c1-n1c[n+](-c2c(C(C)C)cccc2C(C)C)c2c1-c1cccc3cccc-2c13 | CHO | cell growth or viability, MTT | 72 h | 9
N#Cc1cccc(-c2ccc(=O)n(Cc3cccc(-c4ncc(OCC5CCN(CCCCCCCCCC(=O)Nc6cccc7c6C(=O)N(C6CCC(=O)NC6=O)C7=O)CC5)cn4)c3)n2)c1 (stereo not shown) | Hs746T | cell growth or viability, CCK-8 | 72 h | 0.226
CN1CCCNC(=O)c2cccc(c2)C(=O)NCCCN(C)CCCNc2cccc3c2C(=O)c2cccc(c2C3=O)NCCC1 | ASF-4-4L2 | cell proliferation, CCK-8 | 48 h | 6.3
CC12CCCC(n3cc(C(=O)N4CCC(N)CC4)nn3)(C1)C1CC(C)(C)C1CC2 (stereo not shown) | NCM460 | cell growth or viability, CCK-8 | 72 h | 15.4
Cc1cc(C=O)cc(C)c1Oc1cc(Nc2ccc(C#N)cn2)nc2cnccc12 | H69AR (multidrug resistant) | – | 48 h | > 126

SMILES | cell line | assay | setting | IC50 [µM]
COc1ccc(-c2ocnc2-c2cc(Br)c(OC)c(OC)c2)cc1OCCCC(=O)NO | EGI-1 | cell growth or viability, crystal violet | 48 h | 0.6
Cc1cnc(Nc2cc(C)c(C)c(C)c2)nc1Nc1ccc2oc(=O)[nH]c2c1 | human T cells and NK cells | STAT4 phosphorylation, flow cytometry | together with: IL-12 | 0.399
C=C1C(=O)OC2CC3=C[C@@H](C/C(C)=C/C(OC(=O)Cc4cccc5ccccc45)[C@H]12)OC3=O (stereo partly shown) | U-937 | cell growth or viability, MTT | 24 h | 0.18
O=C([O][Ti+2][O]C(=O)c1ccc([P+]([Au-][Cl])(c2ccccc2)c2ccccc2)cc1)c1ccc([P+]([Au-][Cl])(c2ccccc2)c2ccccc2)cc1.c1cc[cH-]c1.c1cc[cH-]c1 | UO-31 | cell viability, XTT | 72 h | 0.3
CC/C(=C(\c1ccc(O)cc1)c1ccc(OCCN(C)CCOCCOCCOCCOCCOC)cc1)c1ccccc1 | MDA-MB-231 (ER-negative) | cell growth | 96 h | 2.17
N#Cc1cccc(-c2ccc(=O)n(Cc3cccc(-c4ncc(OCC5CCN(CC(=O)NCCOCCOCCOCCNc6ccc7c(c6)C(=O)N(C6CCC(=O)NC6=O)C7=O)CC5)cn4)c3)n2)c1 (stereo not shown) | Hs746T | cell growth or viability, CCK-8 | 72 h | 0.00772
COc1ccc(C[C@H]2COC(=O)[C@@H]2Cc2ccc(OCC(=O)Nc3ccc(C(=O)NO)cc3)c(OC)c2)cc1OC | KU812 | cell growth or viability, CCK-8 | 48 h | > 5
COC(=O)[C@H]1[C@H]2C[C@H]3O[C@@]4(CCN3C[C@H]2C[C@@H](OC(=O)c2cc(OC)c(OC)c(OC)c2)[C@@H]1OC)C(=O)Nc1cc(OC)c(-c2ccc(C(F)(F)F)cc2)cc14 | SUP-T1 | cell growth or viability, trypan blue | 72 h | 3.64
CC1OC(OCC2OC(Oc3cc(O)c4c(=O)cc(-c5ccc(O)c(O)c5)oc4c3)C(O)C(O)C2O)C(O)C(O)C1O (stereo not shown) | U87MG.ΔEGFR glioblastoma | cytotoxicity, resazurin reduction | 72 h | 48.2 ± 4
CCCC(CCC)C(=O)[O][Pt]([NH2])([NH2])([Cl])([Cl])[O]C(=O)C(Cl)Cl | six human cancer lines | cytotoxicity, MTT | – | 1.17
OC[C@H]1[C@@H](O)[C@@H](O)CN1Cc1ccc(Br)cc1 | HCT116 p53-/- | MTS | 72 h | > 200
CC/C(=C(\c1ccc(O)cc1)c1ccc(OCCN(C)CCOCCOCCOCCOCCOCCOCCOCCOCCOCCN(C)CCOc2ccc(/C(=C(/CC)c3ccccc3)c3ccc(O)cc3)cc2)cc1)c1ccccc1 | MDA-MB-231 (ER-negative) | cell growth | 96 h | 14
C#CCOc1cc(C(=O)C2=C(C)C(=O)c3ccccc3C2=O)ccc1[N+](=O)[O-] | MRC-5 | cytotoxicity | – | 42.2
C=C[CH2][Pd-]([Cl])[Cl].Cc1cc(C)c(-n2c[n+](-c3c(C)cc(C)cc3C)c3c2-c2cccc4cccc-3c24)c(C)c1 | CHO | cell growth or viability, MTT | 72 h | 3.7
O=c1[nH]c(=O)n([C@@H]2O[C@H](CO)[C@@H](O)[C@H](F)[C@H]2O)cc1F | FM3A | cell growth or viability | – | > 200
CCC(C)C1OC(=O)C(C)(C)C(O)C(Cc2ccccc2)OC(=O)C(C(C)C)OC(=O)C(NC(=O)c2cccc(O)c2)C(C)OC1=O (stereo not shown) | NCM460 | cell viability, CCK-8 | 72 h | > 50
C[N+]1(C)CC[NH2+][Pt-2]1([OH])([Cl])([Cl])[O]C(=O)CCC(=O)OCCOC(=O)CCC(=O)[O][Pt-2]1([OH])([Cl])([Cl])[NH2+]CC[N+]1(C)C | SW1573 | cell growth or viability | 96 h | 144
CCCC(CCC)C(=O)[O][Pt]1([O]C(=O)C(CCC)CCC)[O]C(=O)C(=O)[O]1.NC1CCCCC1N | seven cancer cell lines | cytotoxicity | mean over panel | 10.9
CC(C)C1OC(=O)C(NC(=O)c2cccc(O)c2)C(C)OC(=O)C(C(C)C)OC(=O)C(C)(C)C(=O)C(Cc2ccccc2)OC1=O (stereo not shown) | SGC-7901 | cell viability, CCK-8 | 72 h | > 20
CC(C)=CCC1=C([O-])C(=O)c2ccccc2C1=O.O=[N+]([O-])[O-].[Cu+2].c1ccc(-c2cccc(-c3ccccn3)n2)nc1 | HOS | cell viability, MTT | 24 h | 42.8 ± 3.3
COCCNc1nc(-c2nccn2C)nc2sc(-c3cccc(OC)c3Cl)c(-c3ccccc3)c12 | PANC-1 (KRAS G12D) | Western blot, measured: phospho-MEK, ERK1/2 and Akt | 6 h, together with: EGF 15 min | 1 to 3
O=c1ccn([C@@H]2O[C@H](CSSc3ccccn3)[C@@H](O)[C@H](F)[C@H]2O)c(=O)[nH]1 | FM3A | cell growth or viability | – | 17
Cc1nc(-c2ccc(NC(=O)c3cccs3)cc2Cl)no1 | MRC5 lung fibroblasts | cytotoxicity, LDH release | – | > 30
CCC1=C(CC)C2=[N+]3C1=Cc1c(CC)c(CC)c4[n]1[Ir-3]31([Cl])([C]#[O+])[n]3c(c(CC)c(CC)c3=CC3=[N+]1C(=C4)C(CC)=C3CC)=C2 | HCC827 | cell growth or viability, MTT | 72 h | > 50
N#Cc1c(-c2ccc(Cl)cc2)cc(-c2cccc3ccccc23)nc1Nc1ccc(Nc2nc(-c3cccc4ccccc34)cc(-c3ccc(Cl)cc3)c2C#N)cc1 | U-937 | cell growth or viability, MTT | 72 h | 1.44
CCn1c2ccccc2c2cc(C(O)c3cccc4ncccc34)ccc21 (stereo not shown) | sample B patient-derived glioma cells | tumour microtube length per cell | 24 h | 0.014

Some of these lines once more:
SMILES | cell line | assay | setting | IC50 [µM]
CC/C(=C(\c1ccc(O)cc1)c1ccc(OCCN(C)CCOCCOCCOCCOCCOC)cc1)c1ccccc1 | MDA-MB-231 (ER-negative) | cell growth | 96 h | 2.17
N#Cc1cccc(-c2ccc(=O)n(Cc3cccc(-c4ncc(OCC5CCN(CC(=O)NCCOCCOCCOCCNc6ccc7c(c6)C(=O)N(C6CCC(=O)NC6=O)C7=O)CC5)cn4)c3)n2)c1 (stereo not shown) | Hs746T | cell growth or viability, CCK-8 | 72 h | 0.00772
COc1ccc(C[C@H]2COC(=O)[C@@H]2Cc2ccc(OCC(=O)Nc3ccc(C(=O)NO)cc3)c(OC)c2)cc1OC | KU812 | cell growth or viability, CCK-8 | 48 h | > 5
